Published values of several laboratories.
Parts stem from different laboratories: compare values within a part only.
Sequence of UniProt Q9Y243 (whole entry, looked up): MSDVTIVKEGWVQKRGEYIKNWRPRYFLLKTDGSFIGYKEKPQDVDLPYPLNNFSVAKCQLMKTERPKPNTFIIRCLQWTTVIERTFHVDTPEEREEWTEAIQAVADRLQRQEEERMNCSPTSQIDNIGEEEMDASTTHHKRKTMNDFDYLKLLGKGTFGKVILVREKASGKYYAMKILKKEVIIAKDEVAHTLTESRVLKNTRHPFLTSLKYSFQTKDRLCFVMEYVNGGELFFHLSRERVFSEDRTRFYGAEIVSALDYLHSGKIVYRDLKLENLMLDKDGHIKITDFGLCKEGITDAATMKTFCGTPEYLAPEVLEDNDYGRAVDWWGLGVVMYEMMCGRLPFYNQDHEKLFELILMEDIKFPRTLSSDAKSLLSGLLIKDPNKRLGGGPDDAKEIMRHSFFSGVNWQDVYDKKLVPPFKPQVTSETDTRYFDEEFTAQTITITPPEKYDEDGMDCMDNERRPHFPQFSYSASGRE
Sequence of UniProt P51617 (whole entry, looked up): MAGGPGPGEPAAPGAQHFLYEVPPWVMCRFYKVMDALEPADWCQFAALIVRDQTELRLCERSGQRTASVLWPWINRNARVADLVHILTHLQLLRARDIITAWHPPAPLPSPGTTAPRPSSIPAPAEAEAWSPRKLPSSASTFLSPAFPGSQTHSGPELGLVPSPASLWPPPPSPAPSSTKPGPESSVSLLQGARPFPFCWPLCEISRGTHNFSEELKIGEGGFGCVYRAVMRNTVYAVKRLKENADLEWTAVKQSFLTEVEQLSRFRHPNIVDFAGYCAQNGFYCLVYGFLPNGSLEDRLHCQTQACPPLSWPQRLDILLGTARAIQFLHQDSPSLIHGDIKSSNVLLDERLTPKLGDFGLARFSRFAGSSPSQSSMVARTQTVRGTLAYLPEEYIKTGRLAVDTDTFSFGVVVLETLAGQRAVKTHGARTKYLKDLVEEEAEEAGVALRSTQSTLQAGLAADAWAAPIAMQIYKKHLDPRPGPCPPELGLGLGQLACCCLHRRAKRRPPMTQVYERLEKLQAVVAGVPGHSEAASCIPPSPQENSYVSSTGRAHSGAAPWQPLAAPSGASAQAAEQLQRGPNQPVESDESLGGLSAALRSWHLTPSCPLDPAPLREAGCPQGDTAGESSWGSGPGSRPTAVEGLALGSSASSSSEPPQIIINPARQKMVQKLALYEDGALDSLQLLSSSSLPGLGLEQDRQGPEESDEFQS
Sequence of UniProt Q04912 (whole entry, looked up): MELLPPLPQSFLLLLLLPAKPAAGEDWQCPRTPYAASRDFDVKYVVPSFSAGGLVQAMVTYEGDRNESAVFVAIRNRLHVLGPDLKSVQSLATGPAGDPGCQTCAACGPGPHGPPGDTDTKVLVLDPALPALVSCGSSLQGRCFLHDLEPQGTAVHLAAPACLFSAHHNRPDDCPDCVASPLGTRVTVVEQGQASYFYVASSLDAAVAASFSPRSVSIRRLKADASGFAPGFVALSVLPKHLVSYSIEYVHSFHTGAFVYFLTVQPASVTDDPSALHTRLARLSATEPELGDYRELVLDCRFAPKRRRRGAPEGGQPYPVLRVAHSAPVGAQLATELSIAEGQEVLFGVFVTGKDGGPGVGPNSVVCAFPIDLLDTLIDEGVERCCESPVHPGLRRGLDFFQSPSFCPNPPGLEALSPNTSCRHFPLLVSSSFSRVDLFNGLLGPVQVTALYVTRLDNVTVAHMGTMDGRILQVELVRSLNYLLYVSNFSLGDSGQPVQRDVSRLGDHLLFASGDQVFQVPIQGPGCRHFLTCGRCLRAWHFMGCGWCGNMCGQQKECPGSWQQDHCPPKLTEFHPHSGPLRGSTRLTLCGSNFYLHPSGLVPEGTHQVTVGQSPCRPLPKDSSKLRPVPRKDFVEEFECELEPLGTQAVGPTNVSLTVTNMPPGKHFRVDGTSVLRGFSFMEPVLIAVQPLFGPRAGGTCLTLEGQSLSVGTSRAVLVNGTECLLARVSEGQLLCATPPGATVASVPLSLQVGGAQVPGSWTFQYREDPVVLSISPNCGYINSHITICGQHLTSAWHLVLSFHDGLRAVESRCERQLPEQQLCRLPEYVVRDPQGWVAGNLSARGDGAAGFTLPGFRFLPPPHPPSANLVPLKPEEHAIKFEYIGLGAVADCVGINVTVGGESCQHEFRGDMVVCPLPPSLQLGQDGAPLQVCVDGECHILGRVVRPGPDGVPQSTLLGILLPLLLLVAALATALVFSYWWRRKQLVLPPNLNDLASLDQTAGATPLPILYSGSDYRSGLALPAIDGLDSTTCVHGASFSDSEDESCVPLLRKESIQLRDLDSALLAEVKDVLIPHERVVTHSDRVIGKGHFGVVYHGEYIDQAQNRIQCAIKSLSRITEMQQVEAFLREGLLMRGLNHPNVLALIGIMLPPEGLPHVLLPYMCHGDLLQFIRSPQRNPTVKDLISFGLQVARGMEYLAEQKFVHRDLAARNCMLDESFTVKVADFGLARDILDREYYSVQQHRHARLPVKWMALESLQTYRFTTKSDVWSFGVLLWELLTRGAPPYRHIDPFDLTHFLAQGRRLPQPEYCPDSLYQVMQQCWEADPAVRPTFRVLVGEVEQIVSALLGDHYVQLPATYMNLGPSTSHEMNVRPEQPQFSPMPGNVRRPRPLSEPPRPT
Sequence of UniProt Q16539 (whole entry, looked up): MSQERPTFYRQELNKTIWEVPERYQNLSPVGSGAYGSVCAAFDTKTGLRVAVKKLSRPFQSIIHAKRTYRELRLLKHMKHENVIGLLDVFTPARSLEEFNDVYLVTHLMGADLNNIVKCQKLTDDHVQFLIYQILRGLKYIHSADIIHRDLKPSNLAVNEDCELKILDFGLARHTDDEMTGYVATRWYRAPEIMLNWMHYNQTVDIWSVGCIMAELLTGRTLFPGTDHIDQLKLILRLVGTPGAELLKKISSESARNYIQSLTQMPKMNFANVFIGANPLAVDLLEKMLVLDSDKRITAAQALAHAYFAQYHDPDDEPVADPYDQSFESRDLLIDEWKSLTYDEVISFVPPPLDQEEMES
Sequence of UniProt P35626 (whole entry, looked up): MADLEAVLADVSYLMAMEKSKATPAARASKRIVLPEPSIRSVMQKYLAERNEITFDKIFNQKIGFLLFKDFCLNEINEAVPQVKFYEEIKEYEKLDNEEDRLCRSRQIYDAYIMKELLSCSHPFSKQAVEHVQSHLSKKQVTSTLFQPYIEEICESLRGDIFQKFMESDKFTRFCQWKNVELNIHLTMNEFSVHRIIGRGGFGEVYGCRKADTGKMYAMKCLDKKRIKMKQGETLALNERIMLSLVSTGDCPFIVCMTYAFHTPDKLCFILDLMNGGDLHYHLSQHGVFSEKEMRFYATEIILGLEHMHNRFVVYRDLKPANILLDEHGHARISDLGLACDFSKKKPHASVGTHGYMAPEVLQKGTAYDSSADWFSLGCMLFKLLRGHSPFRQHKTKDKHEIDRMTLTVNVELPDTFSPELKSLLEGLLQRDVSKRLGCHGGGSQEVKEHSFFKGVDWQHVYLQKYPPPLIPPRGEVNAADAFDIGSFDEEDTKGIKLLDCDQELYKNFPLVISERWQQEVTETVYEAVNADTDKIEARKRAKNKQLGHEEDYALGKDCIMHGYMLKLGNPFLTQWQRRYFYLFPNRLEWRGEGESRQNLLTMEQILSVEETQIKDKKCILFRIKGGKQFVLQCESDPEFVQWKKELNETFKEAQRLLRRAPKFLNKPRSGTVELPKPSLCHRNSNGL
Sequence of UniProt P15735 (whole entry, looked up): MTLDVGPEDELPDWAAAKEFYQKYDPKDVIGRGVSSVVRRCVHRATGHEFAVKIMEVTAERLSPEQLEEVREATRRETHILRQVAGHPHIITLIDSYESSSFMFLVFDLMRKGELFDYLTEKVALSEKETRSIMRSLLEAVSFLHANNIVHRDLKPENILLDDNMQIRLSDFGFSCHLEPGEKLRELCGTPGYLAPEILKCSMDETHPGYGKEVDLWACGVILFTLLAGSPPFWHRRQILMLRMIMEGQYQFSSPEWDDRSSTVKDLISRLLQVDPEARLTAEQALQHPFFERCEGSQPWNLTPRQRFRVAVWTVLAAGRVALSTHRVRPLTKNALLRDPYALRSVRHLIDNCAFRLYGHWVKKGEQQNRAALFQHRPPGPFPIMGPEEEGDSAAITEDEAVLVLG

Block 1
Target: Ribosomal protein S6 kinase beta-1 (RPS6KB1, Homo sapiens, UniProt P23443)
Sequence of UniProt P23443 (whole entry, looked up): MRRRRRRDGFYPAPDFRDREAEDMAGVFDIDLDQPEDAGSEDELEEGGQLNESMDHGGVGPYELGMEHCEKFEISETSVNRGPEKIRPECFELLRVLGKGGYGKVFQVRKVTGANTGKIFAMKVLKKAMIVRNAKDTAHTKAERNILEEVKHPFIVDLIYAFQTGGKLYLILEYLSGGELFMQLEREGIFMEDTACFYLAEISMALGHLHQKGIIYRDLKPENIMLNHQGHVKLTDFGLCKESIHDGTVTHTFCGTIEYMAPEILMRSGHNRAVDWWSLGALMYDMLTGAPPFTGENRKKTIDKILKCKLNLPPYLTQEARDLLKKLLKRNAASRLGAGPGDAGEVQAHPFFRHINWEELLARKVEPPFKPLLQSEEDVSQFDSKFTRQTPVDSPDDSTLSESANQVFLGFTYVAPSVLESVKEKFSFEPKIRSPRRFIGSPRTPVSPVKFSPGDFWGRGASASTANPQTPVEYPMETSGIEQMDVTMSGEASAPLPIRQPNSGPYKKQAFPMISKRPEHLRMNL
Read-out: enzyme activity
Mode: inhibitor
Concentration: 0.5 µM
Baseline: control
| SMILES | remaining activity |
| --- | --- |
| O=C(O)c1ccc2c3c1cccc3c(=O)n1c3ccccc3nc21 | 95.9% |
| C#Cc1cccc(Nc2ncnc3cc(OCCOC)c(OCCOC)cc23)c1 | 95.1% |
| Cn1sc(=O)n(Cc2ccccc2)c1=O | 98% |
| COc1cc2nccc(Oc3ccc(NC(=S)NC(=O)c4ccccc4C)cc3)c2cc1OC | 98% |
| O=C1NC(=O)C(c2cn(CCCn3ccnc3)c3ccccc23)=C1Nc1ccccc1 | 42.7% |
| O=S(=O)(c1cccc2cnccc12)N1CCCNCC1 | 76.6% |
| O=C(Nc1cccc(Nc2cc(Nc3cccc(C(F)(F)F)c3)ncn2)c1)C1CC1 | 98% |
| Cc1cccc(-c2[nH]c(C(C)(C)C)nc2-c2ccc3c(c2)OCO3)n1 | 95.9% |
| N#CC(C#N)=C(N)/C(C#N)=C/c1ccc(O)cc1 | 89.5% |
| Cc1nc(-c2ccccc2)c(-c2ccncc2)o1 | 92.8% |
| COc1cc2ncnc(Nc3ccc(Oc4ccccc4)cc3)c2cc1OC | 108% |
| CN(C)c1ccc(C=C2C(=O)Nc3ccccc32)cc1 | 97.1% |

Block 2
Target: Protein C-ets-1 (ETS1, Homo sapiens, UniProt P14921, residues 1-441, full length assumed)
Method: protein-binding microarray
Form: double-stranded DNA, one strand shown
Matrix: in vitro
Concentration: not given
Setting: k-mer, scored over probes, only values ≥0.25
Reading: higher = stronger binding
Construct (chain): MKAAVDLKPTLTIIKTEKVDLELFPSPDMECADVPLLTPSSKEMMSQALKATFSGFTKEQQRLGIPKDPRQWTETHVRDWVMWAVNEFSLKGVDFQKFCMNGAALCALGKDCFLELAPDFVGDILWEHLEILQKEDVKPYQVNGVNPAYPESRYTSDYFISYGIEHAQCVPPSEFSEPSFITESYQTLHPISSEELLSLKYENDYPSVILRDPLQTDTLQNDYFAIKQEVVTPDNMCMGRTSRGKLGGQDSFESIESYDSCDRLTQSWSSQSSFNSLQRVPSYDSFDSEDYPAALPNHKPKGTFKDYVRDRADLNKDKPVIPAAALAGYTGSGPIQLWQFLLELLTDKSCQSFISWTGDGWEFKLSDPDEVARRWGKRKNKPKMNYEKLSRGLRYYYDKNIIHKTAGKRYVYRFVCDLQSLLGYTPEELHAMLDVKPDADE
| Strand | E-score |
| --- | --- |
| GGAAGAGA | 0.354 |
| CCTGTTTC | 0.327 |
| CCGGGAAC | 0.333 |
| CCGGACGA | 0.404 |
| CGACATCC | 0.41 |
| ATTTCCGA | 0.427 |
| CATCCTGG | 0.438 |
| CCACCGGA | 0.46 |

Block 3
SMILES: COc1cccc(CNC(=O)c2nc3scc(COCc4ccc(C(=O)O)cc4)c3c(=O)[nH]2)c1
Read-out: cell-free assay
Method: competition with immobilised ligand
Concentration: 1 µM
| target | remaining binding [%] |
| --- | --- |
| Serine/threonine-protein kinase SIK3 (SIK3, Homo sapiens, UniProt Q9Y2K2) | 63.5 |
| Mitogen-activated protein kinase 14 (MAPK14, Homo sapiens, UniProt Q16539) | 96.7 |
| Ribosomal protein S6 kinase alpha-1, N-terminal kinase domain (RPS6KA1, Homo sapiens, UniProt Q15418) | 100 |
| G protein-coupled receptor kinase 3 (GRK3, Homo sapiens, UniProt P35626) | 72.5 |
| Dual specificity mitogen-activated protein kinase kinase 5 (MAP2K5, Homo sapiens, UniProt Q13163) | 100 |
| Interleukin-1 receptor-associated kinase 1 (IRAK1, Homo sapiens, UniProt P51617) | 75.6 |
| RAC-gamma serine/threonine-protein kinase (AKT3, Homo sapiens, UniProt Q9Y243) | 84.8 |
| Phosphorylase b kinase gamma catalytic chain, liver/testis isoform (PHKG2, Homo sapiens, UniProt P15735) | 83.8 |
| 5'-AMP-activated protein kinase catalytic subunit alpha-2 (PRKAA2, Homo sapiens, UniProt P54646) | 70.5 |
| Ephrin type-A receptor 6 (EPHA6, Homo sapiens, UniProt Q9UF33) | 85.4 |
| Macrophage-stimulating protein receptor (MST1R, Homo sapiens, UniProt Q04912) | 81.9 |
| Epidermal growth factor receptor (EGFR, Homo sapiens, UniProt P00533) | 69.3 |
| Serine/threonine-protein kinase mTOR (MTOR, Homo sapiens, UniProt P42345) | 100 |
| Mitogen-activated protein kinase kinase kinase 13 (MAP3K13, Homo sapiens, UniProt O43283) | 61.5 |
| Phosphatidylinositol 4,5-bisphosphate 3-kinase catalytic subunit alpha isoform (PIK3CA, Homo sapiens, UniProt P42336) | 78.8 |
| Testis-specific serine/threonine-protein kinase 1 (TSSK1B, Homo sapiens, UniProt Q9BXA7) | 88.2 |
| Serine/threonine-protein kinase pim-2 (PIM2, Homo sapiens, UniProt Q9P1W9) | 100 |
| Serine/threonine-protein kinase pim-3 (PIM3, Homo sapiens, UniProt Q86V86) | 100 |

Block 4
Target: Ras GTPase-activating protein-binding protein 1, full length (G3BP1, Homo sapiens, UniProt Q13283)
Sequence of UniProt Q13283 (whole entry, looked up): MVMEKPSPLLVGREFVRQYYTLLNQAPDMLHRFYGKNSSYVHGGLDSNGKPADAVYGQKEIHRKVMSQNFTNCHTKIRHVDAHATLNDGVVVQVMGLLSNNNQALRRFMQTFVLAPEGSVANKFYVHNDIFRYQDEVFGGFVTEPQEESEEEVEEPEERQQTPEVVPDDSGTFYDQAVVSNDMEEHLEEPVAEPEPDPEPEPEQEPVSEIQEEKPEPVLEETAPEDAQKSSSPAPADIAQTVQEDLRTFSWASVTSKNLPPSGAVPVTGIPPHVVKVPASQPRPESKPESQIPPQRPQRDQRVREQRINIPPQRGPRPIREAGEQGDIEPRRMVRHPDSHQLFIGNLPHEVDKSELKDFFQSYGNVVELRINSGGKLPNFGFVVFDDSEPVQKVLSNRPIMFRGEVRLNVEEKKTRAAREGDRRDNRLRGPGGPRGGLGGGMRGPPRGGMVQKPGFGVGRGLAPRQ
Method: RNA Bind-n-Seq
Form: RNA
Matrix: in vitro
Concentration: 200 nM
Setting: whole 134-nt RNA, ends assumed
Added: 150 mM KCl
Baseline: input library
Reading: higher = stronger binding
| Strand | log2 enrichment |
| --- | --- |
| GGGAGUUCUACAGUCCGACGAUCUCCUCAAGUCCUGUGCUACACAUCGUAUGUACCGAAUCGGUUUGGAGGAGGAAAGUAUUAUGUUACGCCGUUCGGAUCUGCACUUCCAGCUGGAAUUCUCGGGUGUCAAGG | -0.805 |
| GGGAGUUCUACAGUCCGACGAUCUGGGAGGUGGAUUUUGUUUAUUUUUUUAGCUCAUUUCCAGGGGUGGGAAUUUUUUUUUAAUAUGAGUCAUGAAUAAAGUUGUUUUUGAAAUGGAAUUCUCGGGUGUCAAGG | -0.0205 |
| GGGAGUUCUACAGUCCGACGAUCGCAGGAAGUAAAAACAAAUCGAAAUGCUUCGGAUAGUGGCAGGGGUGGGGGUUGCUAAGGAAAGGGUGGGAUGGGAGUGGGUAAAGAGUUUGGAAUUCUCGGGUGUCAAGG | 0.743 |
| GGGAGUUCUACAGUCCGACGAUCUGUGGAUGCCCUGCUGAAGAAGUCUGAGGCCCAGCAUGAACAGCCGGAAGAUGGAUGCCCCUUUGGUGCCCUGACGCAGCGCCUCCUGCAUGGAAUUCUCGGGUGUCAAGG | -0.0567 |
| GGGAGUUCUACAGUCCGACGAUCUCAAGUCCUGUGCUACACAUCGUAUGUACCGAAUCGGGUUUUUGGGAGGGUGGGAAAGUAUUAUGUUACGCCGUUCGGAUCUGCACUUCCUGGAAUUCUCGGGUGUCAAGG | 0.595 |
| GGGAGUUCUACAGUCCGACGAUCUGGGAGGUGGAUUUUGUUUAUUUUUUUAGCUCAUUUCCAGGGGUGGGAAUUUUUUUUUAAGAUGUGUCAUGAAUAAAGUUGUUUUUGAAAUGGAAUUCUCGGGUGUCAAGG | 0.458 |
| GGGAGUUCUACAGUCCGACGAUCGUCCUGUGCUACACAUCGUAUGUACCGAAUCGGUUUUUGGGUUUUUGGGGUUUUUGGGGAAAGUAUUAUGUUACGCCGUUCGGAUCUGCAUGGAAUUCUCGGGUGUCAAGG | -0.534 |
| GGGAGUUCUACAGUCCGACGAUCUGUGAGCGGAGCCUGGAGGAGCUGCUGCACUACGUGGGCCAGCUGCGGGCUGAGCUGGCCAGCGCAGGUGGGUGGCCACCCUUGCAAGUGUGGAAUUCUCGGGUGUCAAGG | 0.117 |
